Assay results from different studies.
Compare with care: the assays were run in different laboratories. ± marks the error that the study gave.

Under cytotoxicity, Cc1ccc(C(C)C)cc1.Cn1ccnc1CNCCNc1ccnc2cc(Cl)ccc12.[Cl-].[Cl][Ru+] is recorded as “not toxic” (CHO; MTT; concentration not given, highest tested concentration).
CC(=O)N[C@@H](CC(=O)O)C(=O)N[C@@H](CCC(=O)O)C(=O)N[C@@H](CC(=O)O)C(=O)N[C@H](C(=O)NCC(=O)NCC(=O)NCC(=O)NCCNC(=O)OCC1c2ccccc2-c2ccccc21)C(C)C has an unmetabolized fraction of 62.9% (HepG2; 200 µM, 2 h, 37 °C).
CC(=O)OC[C@H]1O[C@@H](NC(=O)NC(=O)/C=C/c2ccc(-c3ccccc3)cc2)[C@H](OC(C)=O)[C@@H](OC(C)=O)[C@@H]1OC(C)=O: “minimal cytotoxic concentration” > 100 µM (HEL fibroblasts; cell morphology; 3 days).
For CC(NC(=O)C(Cc1ccccc1)NC(=O)OCc1ccccc1)C(=O)CF (stereo not drawn), the cytotoxicity was 0% (Vero E6; concentration not given).
CC(=O)Oc1ccc(Cn2cc(F)c(=O)[nH]c2=O)cc1C1OC(c2ccc(Cl)cc2)=NN1C(C)=O (stereo not drawn): “minimum cytotoxic concentration” 100 µM (HEL fibroblasts; cell morphology, microscopy).
CCCCn1cc(C(=O)O)c(=O)c2cc(F)c(Nc3cccc(Cl)c3)c(N)c21 has an IC50 of 3.71 ± 0.27 µg/mL (SW-620; cell growth, SRB; 72 h).
For CC[C@H](C)[C@H](NC(=O)[C@H](Cc1ccccc1)NC(=O)[C@H](CC(N)=O)NC(=O)[C@H](CCCCN)NC(=O)[C@H](C)NC(=O)[C@@H](NC(=O)[C@H](C)NC(=O)[C@H](Cc1ccccc1)NC(=O)[C@H](C)NC(=O)[C@H](C)NC(=O)[C@H](CCCCN)NC(=O)CNC(=O)[C@@H](NC(=O)[C@H](CCCCN)NC(=O)[C@H](CCCCN)NC(=O)[C@H](C)NC(=O)[C@@H](NC(=O)[C@H](CC(=O)O)NC(=O)[C@H](CC(C)C)NC(=O)[C@H](Cc1c[nH]c2ccccc12)NC(=O)CN)C(C)C)[C@@H](C)CC)C(C)C)C(=O)O, the hemolysis was 100% (erythrocytes; 250 µg/mL, 1 h; relative to: Triton X-100 1%).
CCCCn1cc(C(=O)O)c(=O)c2cc(F)c(Nc3ccccc3Cl)c(N)c21 has an IC50 of 55 µM (SW-620; cell growth or viability, SRB).
With CC(C)C[C@@H]1NC(=O)[C@@H](Cc2c[nH]c3ccccc23)NC(=O)[C@H](CCCNC(=N)N)NC(=O)[C@@H](CCC(=O)O)NC(=O)[C@H](CCC(N)=O)NC(=O)[C@@H](CCC(=O)O)NC(=O)[C@H](CCCNC(=N)N)NC(=O)[C@@H](Cc2c[nH]c3ccccc23)NC1=O the HD50 was > 660 µM (erythrocytes; hemolysis).
The IC50 of CCCCn1cc(C(=O)O)c(=O)c2cc(F)c(Nc3cccc(Cl)c3)c([N+](=O)[O-])c21 is reported as 253 µM (SW-620; cell growth or viability, SRB).
Under “highest non-cytotoxic concentration”, COC1OC2COC(c3ccccc3)OC2C(NC(=S)SCc2ccccc2)C1O (stereo not drawn) is recorded as > 200 µg/mL (CHO; resazurin; 48 h, 10% FBS).
With N=C(N)NCCC[C@@H]1NC(=O)[C@H](Cc2csc3ccccc23)NC(=O)[C@@H](Cc2ccccc2)NC(=O)[C@H](Cc2ccccc2)NC(=O)[C@H](CCC(=O)NCCOCCOCC(=O)N[C@@H](CCCCNC(=O)c2ccc3c(c2)C(=O)OC32c3ccc4cc(O)ccc4c3Oc3c2ccc2cc(O)ccc32)C(N)=O)NC(=O)[C@@H](CCCNC(=N)N)NC(=O)[C@H](CCCNC(=N)N)NC(=O)[C@@H](CCCNC(=N)N)NC1=O the cytosolic entry was 116 ± 5% (HeLa; cell penetration, flow cytometry; 2.0 µM, 2 h, 1% FBS; relative to: CPP12).
For Cc1ccc(/C=C/C(=O)O)cc1-c1cc2c(cc1C)C(C)(C)CCC2(C)C, “lowest effective concentration” read 1.33 µg/mL (TK6; cytotoxicity, GreenScreen; without S9).
Under “minimal cytotoxic concentration”, O=C(COc1ccc(-c2ccccc2)cc1)N[C@@H]1O[C@H](CO)[C@@H](O)[C@H](O)[C@H]1O is recorded as > 100 µM (HEL fibroblasts; cell morphology; 3 days).
For O=C(O)COc1c2c(c(OCC(=O)O)c3c1C1CC3c3cc4c(cc31)C1CC4c3ccccc31)C1CC2c2cc3c(cc21)C1CC3c2ccccc21, “highest non-toxic concentration” read ≤ 250 µM (TZM-bl; CellTiter-Glo; 2 days).
For O=c1cc[s+]([O-])c2ccccc12 (single isomer, unassigned; (-)), the CC50 was 459 µM (U-937; MTT; 72 h).
For CC(=O)Oc1ccc(Cn2ccc(=O)[nH]c2=O)cc1C1OC(c2ccccc2)=NN1C(C)=O (stereo not drawn), “minimum cytotoxic concentration” read ≥ 100 µM (HEL fibroblasts; cell morphology alteration).
Under “median lethal concentration”, O=C1C(O)=C(CN2CCNCC2)C(=O)c2ccccc21 is recorded as ≥ 3670 µM (BGM (monkey kidney); MTT; 10% FCS; 24 h).
The inhibition of Cc1ccnc(Nc2c3c(nc4cc(C)ccc24)CCCC3)c1 is reported as -30.9 ± 1.16% (HepG2; MTT; 50 µM, 24 h, 10% FBS).
With COc1c(OC(=O)N(C)c2ccc(Br)cc2)cc2oc3cc4c(c(O)c3c(=O)c2c1CC=C(C)C)C=CC(C)(C)O4 the inhibition was 5.3% (PC-12; cell proliferation, MTT; 10 µM, 24 h).
With COc1ccc2cc(Nc3c4c(nc5ccccc35)CCCC4)ccc2c1 the inhibition was 84.2 ± 2.27% (HepG2; MTT; 50 µM, 24 h, 10% FBS).
The IC50 of CCCCn1cc(C(=O)O)c(=O)c2cc(F)c3c(nnn3-c3cccc(Cl)c3)c21 is reported as 110 µM (SW-620; cell growth or viability, SRB).
Under proliferation, CC[C@H](C)[C@H](NC(=O)[C@H](CC(C)C)NC(=O)[C@H]1CCCN1C(=O)[C@@H](CO)NC(=O)[C@H](N)CC(C)C)C(=O)N[C@@H](Cc1ccccc1)C(=O)N[C@H](C(=O)N[C@H](C(=O)N[C@H](C(=O)N1CCC[C@H]1C(=O)N[C@@H](CC(=O)O)C(=O)N[C@@H](C(=O)O)[C@H](C)O)[C@@H](C)O)[C@@H](C)O)C(C)C is recorded as “no inhibition” (MC38-CCR7-GFP; MTT; concentration not given, 24 to 72 h).
With CCCCc1ccc(N(C)C(=O)Oc2cc3oc4cc5c(c(O)c4c(=O)c3c(CC=C(C)C)c2OC)C=CC(C)(C)O5)cc1 the inhibition was 5.2% (PC-12; cell proliferation, MTT; 10 µM, 24 h).
For CC(C)c1ccc(/C=C/C(=O)NC(=O)N[C@@H]2O[C@H](CO)[C@@H](O)[C@H](O)[C@H]2O)cc1, “minimal cytotoxic concentration” read > 100 µM (HEL fibroblasts; cell morphology; 3 days).
CC(=O)Oc1ccc(Cn2nc(C)c(=O)[nH]c2=O)cc1C1OC(c2cccc(Cl)c2)=NN1C(C)=O (stereo not drawn): “minimum cytotoxic concentration” ≥ 20 µM (HEL fibroblasts; cell morphology, microscopy).
CCN(CC)CC#CCO[C@H]1CC[C@H](O)[C@@H]2[C@H]1[C@H]1C[C@@H]3[C@@]4(C)CCC[C@@](C)(C(=O)OC)[C@@H]4CC[C@@]23C=C1C(C)C has a viability of 81.5% (BHK-21-hACE2; 20.0 µM, 48 (unit not given)).
COc1ccc(Nc2c3c(nc4ccccc24)CCCC3)nc1 has an inhibition of 11.6 ± 0.28% (HepG2; MTT; 50 µM, 24 h, 10% FBS).
With CSCC[C@H](N)C(=O)N[C@@H](CCC(=O)O)C(=O)N[C@H](C(=O)NCC(=O)N[C@@H](Cc1c[nH]c2ccccc12)C(=O)N[C@@H](Cc1ccc(O)cc1)C(=O)N[C@@H](CCCNC(=N)N)C(=O)N[C@@H](CO)C(=O)N1CCC[C@H]1C(=O)N[C@@H](Cc1ccccc1)C(=O)N[C@@H](CO)C(=O)N[C@@H](CCCNC(N)=O)C(=O)N[C@H](C(=O)N[C@H](C(=O)N[C@@H](Cc1c[nH]cn1)C(=O)N[C@@H](CC(C)C)C(=O)N[C@@H](Cc1ccc(O)cc1)C(=O)N[C@@H](CCCNC(N)=O)C(=O)N[C@@H](CC(N)=O)C(=O)NCC(=O)N[C@@H](CCCCN)C(N)=O)C(C)C)C(C)C)C(C)C the cytotoxic concentration was ≤ 10 µM (mouse bone marrow-derived dendritic cells; MTT).
CC=C(C)C(=O)OC1C(OC(=O)C=Cc2ccccc2)C2COC(=O)CCC(=O)CCCCCCC(CCCCC)OC3OC(C)C(OC(C)=O)C(OC(C)=O)C3OC(O2)C1OC(C)=O (stereo not drawn) has an IC50 of > 10 µM (MDA-MB-231; cytotoxicity).

Repeated from above:
Under proliferation, CC[C@H](C)[C@H](NC(=O)[C@H](CC(C)C)NC(=O)[C@H]1CCCN1C(=O)[C@@H](CO)NC(=O)[C@H](N)CC(C)C)C(=O)N[C@@H](Cc1ccccc1)C(=O)N[C@H](C(=O)N[C@H](C(=O)N[C@H](C(=O)N1CCC[C@H]1C(=O)N[C@@H](CC(=O)O)C(=O)N[C@@H](C(=O)O)[C@H](C)O)[C@@H](C)O)[C@@H](C)O)C(C)C is recorded as “no inhibition” (MC38-CCR7-GFP; MTT; concentration not given, 24 to 72 h).
With COc1ccc2cc(Nc3c4c(nc5ccccc35)CCCC4)ccc2c1 the inhibition was 84.2 ± 2.27% (HepG2; MTT; 50 µM, 24 h, 10% FBS).
